{"data": "Experimental data collected from several papers", "note": "Each numbered part is a random draw from the data of one study; scales do not carry over between parts. Several values in a cell are separate wells, animals, samples, runs or records.", "chain of UniProt P10721 (whole entry, unmodified, looked up)": "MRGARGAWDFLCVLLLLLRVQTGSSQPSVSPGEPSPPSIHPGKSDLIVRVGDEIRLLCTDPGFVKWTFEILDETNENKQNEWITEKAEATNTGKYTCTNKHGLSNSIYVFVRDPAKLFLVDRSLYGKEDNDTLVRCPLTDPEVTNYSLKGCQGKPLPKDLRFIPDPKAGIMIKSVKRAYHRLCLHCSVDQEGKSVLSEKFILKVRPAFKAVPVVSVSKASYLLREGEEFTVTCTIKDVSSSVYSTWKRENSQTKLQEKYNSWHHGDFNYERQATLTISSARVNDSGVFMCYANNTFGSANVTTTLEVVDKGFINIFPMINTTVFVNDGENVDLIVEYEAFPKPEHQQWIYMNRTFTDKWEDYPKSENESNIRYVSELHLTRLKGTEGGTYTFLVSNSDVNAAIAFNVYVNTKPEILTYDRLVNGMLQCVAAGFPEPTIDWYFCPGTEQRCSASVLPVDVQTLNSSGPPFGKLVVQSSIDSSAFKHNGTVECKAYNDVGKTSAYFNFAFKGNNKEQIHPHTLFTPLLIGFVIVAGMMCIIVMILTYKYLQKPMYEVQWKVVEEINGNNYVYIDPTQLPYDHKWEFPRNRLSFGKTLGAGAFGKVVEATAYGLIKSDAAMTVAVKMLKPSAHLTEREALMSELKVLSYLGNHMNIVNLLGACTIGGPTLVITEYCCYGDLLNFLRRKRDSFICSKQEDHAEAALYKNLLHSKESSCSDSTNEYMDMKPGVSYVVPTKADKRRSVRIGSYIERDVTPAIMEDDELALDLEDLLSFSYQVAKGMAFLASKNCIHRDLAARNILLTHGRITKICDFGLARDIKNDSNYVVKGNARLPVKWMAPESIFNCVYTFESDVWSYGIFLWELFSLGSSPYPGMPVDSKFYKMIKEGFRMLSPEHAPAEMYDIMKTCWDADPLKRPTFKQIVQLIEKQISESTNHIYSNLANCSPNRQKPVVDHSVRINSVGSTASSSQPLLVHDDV", "chain of UniProt Q9UEE5 (whole entry, looked up)": "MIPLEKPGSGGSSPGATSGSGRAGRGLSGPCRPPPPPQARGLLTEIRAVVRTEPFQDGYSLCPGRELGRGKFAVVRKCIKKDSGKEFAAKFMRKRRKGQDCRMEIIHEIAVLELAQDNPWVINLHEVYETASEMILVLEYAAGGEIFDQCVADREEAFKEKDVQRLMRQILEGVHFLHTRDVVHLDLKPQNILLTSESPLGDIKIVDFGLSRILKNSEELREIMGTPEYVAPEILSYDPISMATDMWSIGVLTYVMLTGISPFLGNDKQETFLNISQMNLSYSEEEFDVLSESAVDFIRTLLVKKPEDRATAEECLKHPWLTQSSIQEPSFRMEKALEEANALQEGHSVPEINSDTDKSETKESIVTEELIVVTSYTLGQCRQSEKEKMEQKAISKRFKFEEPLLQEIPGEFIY", "chain of UniProt P53779 (whole entry, looked up)": "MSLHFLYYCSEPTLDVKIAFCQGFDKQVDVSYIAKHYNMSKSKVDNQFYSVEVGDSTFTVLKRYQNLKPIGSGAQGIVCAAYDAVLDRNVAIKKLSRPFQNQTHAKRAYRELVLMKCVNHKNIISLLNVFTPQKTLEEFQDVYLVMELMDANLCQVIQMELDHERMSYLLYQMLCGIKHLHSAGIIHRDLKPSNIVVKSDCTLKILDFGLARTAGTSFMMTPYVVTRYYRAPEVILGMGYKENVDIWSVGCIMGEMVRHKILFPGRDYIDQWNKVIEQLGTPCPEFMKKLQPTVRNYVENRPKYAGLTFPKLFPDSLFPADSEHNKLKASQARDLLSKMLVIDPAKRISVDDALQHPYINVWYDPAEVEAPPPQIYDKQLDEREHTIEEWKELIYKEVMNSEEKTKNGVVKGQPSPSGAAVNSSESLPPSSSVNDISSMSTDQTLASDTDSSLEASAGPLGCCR", "chain of UniProt P42681 (whole entry, looked up)": "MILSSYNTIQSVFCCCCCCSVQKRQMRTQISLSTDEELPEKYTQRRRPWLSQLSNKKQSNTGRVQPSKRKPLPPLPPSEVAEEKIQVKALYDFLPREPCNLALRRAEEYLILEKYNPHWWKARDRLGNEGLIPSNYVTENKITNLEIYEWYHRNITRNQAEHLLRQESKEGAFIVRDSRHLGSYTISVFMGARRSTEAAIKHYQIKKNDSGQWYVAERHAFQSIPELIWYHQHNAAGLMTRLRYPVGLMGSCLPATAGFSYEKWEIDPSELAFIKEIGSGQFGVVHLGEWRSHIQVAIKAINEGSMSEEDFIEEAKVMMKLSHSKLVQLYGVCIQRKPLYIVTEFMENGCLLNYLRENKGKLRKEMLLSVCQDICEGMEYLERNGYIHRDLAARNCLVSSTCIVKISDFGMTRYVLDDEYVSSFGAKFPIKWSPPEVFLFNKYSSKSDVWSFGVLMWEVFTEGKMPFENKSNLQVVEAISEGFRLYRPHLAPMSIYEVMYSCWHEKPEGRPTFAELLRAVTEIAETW", "chain of UniProt Q9Y4K4 (whole entry, looked up)": "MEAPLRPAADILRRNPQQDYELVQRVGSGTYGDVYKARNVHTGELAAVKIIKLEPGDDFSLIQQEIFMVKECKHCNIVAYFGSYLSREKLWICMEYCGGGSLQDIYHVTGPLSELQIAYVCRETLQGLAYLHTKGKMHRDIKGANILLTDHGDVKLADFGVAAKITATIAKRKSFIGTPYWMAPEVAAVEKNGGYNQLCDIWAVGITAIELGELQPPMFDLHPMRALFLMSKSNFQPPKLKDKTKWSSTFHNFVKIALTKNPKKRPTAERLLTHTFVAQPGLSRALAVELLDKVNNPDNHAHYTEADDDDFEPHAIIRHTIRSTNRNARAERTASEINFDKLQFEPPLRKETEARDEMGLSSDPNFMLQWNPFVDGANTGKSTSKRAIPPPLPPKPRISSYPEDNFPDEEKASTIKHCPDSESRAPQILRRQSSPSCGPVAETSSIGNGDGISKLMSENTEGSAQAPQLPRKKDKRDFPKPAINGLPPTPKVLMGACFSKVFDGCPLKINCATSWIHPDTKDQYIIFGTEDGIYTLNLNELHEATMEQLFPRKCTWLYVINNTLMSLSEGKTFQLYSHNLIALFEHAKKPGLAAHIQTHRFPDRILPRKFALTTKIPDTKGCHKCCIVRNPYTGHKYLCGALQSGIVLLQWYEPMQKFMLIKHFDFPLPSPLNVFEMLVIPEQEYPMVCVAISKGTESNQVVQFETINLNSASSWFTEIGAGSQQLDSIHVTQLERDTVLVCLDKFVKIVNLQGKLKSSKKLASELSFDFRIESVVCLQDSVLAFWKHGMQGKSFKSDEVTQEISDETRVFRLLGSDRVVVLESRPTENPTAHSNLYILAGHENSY", "chain of UniProt Q9BYT3 (whole entry, looked up)": "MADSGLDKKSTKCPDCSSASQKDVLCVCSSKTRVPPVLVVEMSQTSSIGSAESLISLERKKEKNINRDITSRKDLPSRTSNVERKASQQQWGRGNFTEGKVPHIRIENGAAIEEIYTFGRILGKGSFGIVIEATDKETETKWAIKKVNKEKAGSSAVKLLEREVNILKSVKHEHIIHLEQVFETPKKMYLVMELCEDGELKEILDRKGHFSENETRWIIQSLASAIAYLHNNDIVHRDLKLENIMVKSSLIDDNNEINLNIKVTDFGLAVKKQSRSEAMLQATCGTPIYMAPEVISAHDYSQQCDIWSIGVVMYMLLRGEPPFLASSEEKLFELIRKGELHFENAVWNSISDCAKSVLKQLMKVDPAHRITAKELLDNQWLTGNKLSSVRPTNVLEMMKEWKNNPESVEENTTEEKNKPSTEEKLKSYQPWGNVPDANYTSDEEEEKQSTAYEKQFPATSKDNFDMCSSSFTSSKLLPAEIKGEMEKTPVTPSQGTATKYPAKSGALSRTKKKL"}
{"data": "Block 1", "host": "human", "medium": "microsomes or S9", "concentration": "2 µM", "time": "0.5 h"}
{"SMILES": "CN(c1cccc(NC(=O)C(C)(C)C)c1)S(C)(=O)=O", "remaining compound [%]": 92.3}
{"SMILES": "COC(=O)c1ccc(Cn2cc(-c3nc(-c4cnccn4)no3)ccc2=O)o1", "remaining compound [%]": 27.9}
{"SMILES": "CCn1ccc(C(=O)N2CCCN(S(C)(=O)=O)c3ccccc32)n1", "remaining compound [%]": 7.95}
{"SMILES": "CC(=O)Nc1cc(F)c(F)cc1NC(=O)CCNC(=O)C(C)(C)C", "remaining compound [%]": 83.4}
{"SMILES": "CC(C)c1ccc(CCCNS(C)(=O)=O)cc1", "remaining compound [%]": 63.7}
{"data": "Block 2", "Structure (SMILES)": "COc1ccc2c(c1)O[C@H](c1ccc(OC)c(OC)c1)C[C@@H]2NC(=O)C1(c2ccc3c(c2)OC(F)(F)O3)CC1", "technique": "competition with immobilised ligand", "concentration": "1 µM"}
{"target": "Tyrosine-protein kinase ABL1, non-phosphorylated (ABL1, Homo sapiens, UniProt P00519, Q252H)", "read-out": "cell-free assay", "remaining binding [%]": 100}
{"target": "TXK (Homo sapiens, UniProt P42681)", "read-out": "binding", "remaining binding [%]": 95}
{"target": "PIK3CA (Homo sapiens, UniProt P42336, E545A)", "read-out": "cell-free assay", "remaining binding [%]": 100}
{"target": "STK17A (Homo sapiens, UniProt Q9UEE5)", "read-out": "cell-free assay", "remaining binding [%]": 100}
{"target": "Mast/stem cell growth factor receptor Kit, autoinhibited (KIT, Homo sapiens, UniProt P10721)", "read-out": "cell-free assay", "remaining binding [%]": 99}
{"target": "MAPK10 (Homo sapiens, UniProt P53779)", "read-out": "cell-free assay", "remaining binding [%]": 100}
{"target": "EGFR (Homo sapiens, UniProt P00533)", "read-out": "cell-free assay", "remaining binding [%]": 92}
{"target": "MAP4K5 (Homo sapiens, UniProt Q9Y4K4)", "read-out": "cell-free assay", "remaining binding [%]": 100}
{"target": "STK33 (Homo sapiens, UniProt Q9BYT3)", "read-out": "cell-free assay", "remaining binding [%]": 61}
{"target": "KIT (Homo sapiens, UniProt P10721, L576P)", "read-out": "cell-free assay", "remaining binding [%]": 100}
{"target": "ERBB2 (Homo sapiens, UniProt P04626)", "read-out": "cell-free assay", "remaining binding [%]": 100}
{"data": "Block 3", "cell line": "mouse MPNST tumor cells", "technique": "high-content immunofluorescence imaging", "refers to": "nuclear SOX9", "concentration": "10 µM", "time": "12 h", "setting": "mean of 2 replicates", "baseline": "DMSO control", "reading": "higher = more nuclear SOX9"}
{"SMILES": "CC1=C(C(=O)OCCN(Cc2ccccc2)c2ccccc2)C(c2cccc([N+](=O)[O-])c2)C(P2(=O)OCC(C)(C)CO2)=C(C)N1 (stereo not drawn)", "nuclear SOX9 intensity": "136 % of DMSO"}
{"SMILES": "Nc1ccc(S(=O)(=O)Nc2ccnn2-c2ccccc2)cc1", "nuclear SOX9 intensity": "97.8 % of DMSO"}
{"SMILES": "Cc1cc(Nc2cc(Cl)nc(Oc3ccc([N+](=O)[O-])cc3)n2)n[nH]1", "nuclear SOX9 intensity": "104 % of DMSO"}
{"SMILES": "CC1CCN(CC[C@H]2CCCN2S(=O)(=O)c2cccc(O)c2)CC1", "nuclear SOX9 intensity": "102 % of DMSO"}
{"SMILES": "O=C(Nc1ccccc1C(=O)Nc1ccc(CCO)cc1)c1ccc([N+](=O)[O-])cc1", "nuclear SOX9 intensity": "107 % of DMSO"}
{"SMILES": "CC1(CN2CCC(n3c(=O)[nH]c4ccccc43)CC2)OCc2ccccc2-n2cccc21 (stereo not drawn)", "nuclear SOX9 intensity": "122 % of DMSO"}
{"SMILES": "CN(Cc1ccccc1)C(=O)[C@H](Cc1ccc2ccccc2c1)NC(=O)[C@@H]1C[C@@H](O)CN1C(=O)c1cn(C)c2ccccc12", "nuclear SOX9 intensity": "92.9 % of DMSO"}
{"data": "Further values, each from its own experiment"}
{"SMILES": "COc1ccc(Oc2cc(NCCC(F)(F)F)c3ncc(-c4ccc(C(=O)NC5CC5)c(C)c4)n3n2)c(F)c1F", "cell line": "NCI-H1048", "technique": "Vi-Cell", "concentration": "6 nM", "time": "3 d", "baseline": "DMSO", "measurement": "cell count", "value": "0.51 and 0.564"}
{"note": "Repeated from above (block 3):"}
{"SMILES": "CC1=C(C(=O)OCCN(Cc2ccccc2)c2ccccc2)C(c2cccc([N+](=O)[O-])c2)C(P2(=O)OCC(C)(C)CO2)=C(C)N1 (stereo not drawn)", "nuclear SOX9 intensity": "136 % of DMSO"}
{"SMILES": "CC1(CN2CCC(n3c(=O)[nH]c4ccccc43)CC2)OCc2ccccc2-n2cccc21 (stereo not drawn)", "nuclear SOX9 intensity": "122 % of DMSO"}
{"SMILES": "Nc1ccc(S(=O)(=O)Nc2ccnn2-c2ccccc2)cc1", "nuclear SOX9 intensity": "97.8 % of DMSO"}
